Results from different studies.
Protocols differ between the studies behind these lines. Several values in a cell are separate wells, animals, samples, runs or records. ± marks the error that the study gave.
rep papain-like protease: Replicase polyprotein 1ab, papain-like protease (rep, Severe acute respiratory syndrome-related coronavirus, UniProt P0C6X7)
rep main protease: Replicase polyprotein 1ab, main protease (rep, Severe acute respiratory syndrome-related coronavirus, UniProt P0C6X7)
OPRM1: Mu-type opioid receptor (OPRM1, Homo sapiens, UniProt P35372)
Sequence of UniProt P35372 (whole entry, looked up): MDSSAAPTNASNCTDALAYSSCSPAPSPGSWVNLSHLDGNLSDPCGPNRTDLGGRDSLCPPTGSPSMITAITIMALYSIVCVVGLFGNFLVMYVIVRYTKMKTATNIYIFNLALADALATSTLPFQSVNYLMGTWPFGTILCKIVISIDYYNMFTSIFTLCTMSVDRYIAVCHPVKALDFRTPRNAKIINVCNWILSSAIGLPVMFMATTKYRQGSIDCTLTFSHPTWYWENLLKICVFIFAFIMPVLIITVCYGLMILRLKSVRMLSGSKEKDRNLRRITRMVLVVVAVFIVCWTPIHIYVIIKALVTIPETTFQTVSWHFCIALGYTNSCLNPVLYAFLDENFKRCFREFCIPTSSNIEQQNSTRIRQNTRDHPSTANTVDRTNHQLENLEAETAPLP
Sequence of UniProt Q14721 (whole entry, looked up): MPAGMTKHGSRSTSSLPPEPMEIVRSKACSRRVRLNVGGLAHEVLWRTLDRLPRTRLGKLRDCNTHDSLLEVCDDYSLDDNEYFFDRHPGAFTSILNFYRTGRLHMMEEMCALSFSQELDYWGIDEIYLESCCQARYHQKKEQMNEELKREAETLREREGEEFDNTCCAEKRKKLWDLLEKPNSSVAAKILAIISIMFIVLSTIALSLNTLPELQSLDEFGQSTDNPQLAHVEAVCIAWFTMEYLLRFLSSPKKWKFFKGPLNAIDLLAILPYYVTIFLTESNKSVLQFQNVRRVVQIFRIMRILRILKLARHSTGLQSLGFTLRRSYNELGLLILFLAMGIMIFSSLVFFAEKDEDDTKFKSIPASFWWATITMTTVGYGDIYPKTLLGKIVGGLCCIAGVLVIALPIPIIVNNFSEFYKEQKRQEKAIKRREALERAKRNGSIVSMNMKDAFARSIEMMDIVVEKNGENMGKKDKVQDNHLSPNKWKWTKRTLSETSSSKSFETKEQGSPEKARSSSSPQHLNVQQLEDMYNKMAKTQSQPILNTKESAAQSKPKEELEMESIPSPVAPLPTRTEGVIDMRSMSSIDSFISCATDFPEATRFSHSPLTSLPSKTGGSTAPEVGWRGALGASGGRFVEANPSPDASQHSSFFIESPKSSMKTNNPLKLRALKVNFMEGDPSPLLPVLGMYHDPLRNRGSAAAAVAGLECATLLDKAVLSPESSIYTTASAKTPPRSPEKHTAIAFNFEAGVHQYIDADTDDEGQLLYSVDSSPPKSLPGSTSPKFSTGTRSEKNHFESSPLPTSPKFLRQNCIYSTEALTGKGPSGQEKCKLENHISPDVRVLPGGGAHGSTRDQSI

Cc1ccc(C(=O)NCc2ccc(C)c(C(=O)N[C@H](C)c3cccc4ccccc34)c2)cc1Br gave an IC50 of 0.32 ± 0.05 µM (rep papain-like protease; enzyme activity, inhibitor).
O=C(NCCc1cccc(F)c1)[C@@H](c1cncnc1)N(C(=O)[C@H](F)Cl)c1ccc(S(F)(F)(F)(F)F)cc1 gave an IC50 of 0.094 µM (rep main protease; enzyme activity, inhibitor, biochemical; SARS-CoV-1).
With C=CCC(NC(=O)C1CN(C(=O)C(CC(=C)C)NC(=O)C=C)CC1c1cccc(C(F)(F)F)c1)C(=O)NC (centres unmarked) the IC50 was over 100 µM (rep main protease; enzyme activity, inhibitor).
For CCC(C(=O)Nn1cccc1)n1cccc2nc(SCc3ccc(F)cc3)nc1-2 (centres unmarked), the IC50 was 2.46 ± 0.65 µM (rep papain-like protease; enzyme activity).
With CC(C)C[C@@H]1NC(=O)[C@H](CCCNC(=N)N)NC(=O)[C@@H]2CCCN2C(=O)[C@@H]2CSSC[C@H](NC(=O)CNC(=O)[C@@H]3CCCN3C(=O)[C@H](CCCCN)NC(=O)[C@H](CC(=O)O)NC(=O)[C@@H](NC(=O)CN)C(C)C)C(=O)N[C@@H](CCCNC(=N)N)C(=O)N[C@@H](Cc3ccc(O)cc3)C(=O)N[C@@H](CC(C)C)C(=O)N[C@@H](Cc3ccccc3)C(=O)NCC(=O)NCC(=O)N[C@H]3CSSC[C@H](NC(=O)CNC1=O)C(=O)N[C@@H](CCCCN)C(=O)NCC(=O)N[C@@H](CCCCN)C(=O)NCC(=O)N[C@@H](Cc1c[nH]cn1)C(=O)N[C@@H](CC(=O)O)C(=O)N[C@@H](Cc1ccc(O)cc1)C(=O)N[C@H](C(=O)N[C@@H](C)C(=O)N[C@@H](Cc1c[nH]c4ccccc14)C(=O)N[C@@H](CC(=O)O)C(=O)NCC(=O)N[C@H](C(=O)N[C@@H](Cc1ccccc1)C(=O)N[C@@H](CO)C(=O)N[C@@H](CC(=O)O)C(=O)O)[C@@H](C)O)CSSC[C@H](NC(=O)[C@H](CC(=O)O)NC(=O)[C@H](CC(=O)O)NC(=O)[C@H](CC(=O)O)NC(=O)[C@H](CO)NC(=O)[C@H](CCCCN)NC3=O)C(=O)N2 the IC50 was 0.4 ± 0.01 µM (KCNB1 (Homo sapiens, UniProt Q14721); potassium current, inhibitor, automated patch clamp; tsA201).
CSCC[C@@H](C=O)NC(=O)[C@H](CC(C)C)NC(=O)[C@H](CC(C)C)NC(C)=O gave an IC50 of 2.04 µM (rep main protease; enzyme activity, inhibitor).
C=CC(=O)N1CCN(c2cc(-c3ccc(C4CCC4)cc3)ncc2C(=O)N[C@H](Cc2ccccc2)C(=O)NC)C(C)C1 (some centres unmarked) has an IC50 of over 100 µM (rep main protease; enzyme activity, inhibitor).
CCC(C(=O)Nc1ccccc1F)n1c(SCc2ccc(F)cc2)nc2ncccc21 (centres unmarked) has an IC50 of over 20 µM (rep papain-like protease; enzyme activity).
CC[C@H](C)[C@H](NC(=O)[C@H](CCCCN)NC(=O)[C@H](Cc1c[nH]c2ccccc12)NC(=O)[C@H](CC(C)C)NC(=O)[C@H](CC(C)C)NC(=O)[C@H](CC(=O)O)NC(=O)[C@@H](NC(=O)[C@H](CCCNC(=N)N)NC(=O)[C@H](CCC(=O)O)NC(=O)[C@H](CCCNC(=N)N)NC(=O)[C@H](CC(=O)O)NC(=O)[C@H](CC(C)C)NC(C)=O)[C@@H](C)CC)C(=O)N[C@@H](C)C(=O)N[C@@H](CCCNC(=N)N)C(=O)N[C@@H](C)C(=O)NCC(=O)N[C@@H](C)C(=O)N[C@@H](CCCNC(=N)N)C(=O)N[C@@H](CO)C(=O)N[C@@H](C)C(=O)N[C@H](C(=O)NCC(N)=O)C(C)C gave a Kd of 4100 µM (membrane reorganisation, tryptophan fluorescence; POPC:POPG:cholesterol SUV; pH 7.5, 25 °C, second transition).
O=c1cc(C(F)(F)F)c2ccc(O)cc2o1 has an IC50 of 149 µM (rep papain-like protease; enzyme activity, inhibitor).
CC(C)C[C@H](NC(=O)[C@H](CO[C@@H]1O[C@H](CO)[C@@H](O)[C@H](O)[C@H]1O)NC(=O)[C@H](CCCCN)NC(=O)[C@H](CC(C)C)NC(=O)CNC(=O)[C@H](CCCCN)NC(=O)[C@H](CCC(=O)O)NC(=O)[C@H](C)NC(=O)[C@H](CC(C)C)NC(=O)[C@H](CC(N)=O)NC(=O)[C@@H]1CCCN1C(=O)[C@H](CC(C)C)NC(=O)[C@H](Cc1ccccc1)NC(=O)CNC(=O)[C@H](NC(=O)[C@@H](N)Cc1ccc(O)cc1)[C@H](C)O)C(N)=O gave a Ki of 0.0022 ± 0.0003 µM (OPRM1; radioligand displacement; CHO membranes; 60 min, pH 7.5, 25 °C, added: 0.25 nM [3H]DAMGO).
CCC(C(=O)Nc1cccc(F)c1)n1cccc2nc(SCc3ccc(F)cc3)nc1-2 (centres unmarked) gave an IC50 of over 20 µM (rep papain-like protease; enzyme activity).
The IC50 of O=C[C@H](C[C@@H]1CCNC1=O)NC(=O)[C@H](Cc1ccccc1)NC(=O)/C=C/c1ccc2c(c1)OCO2 is reported as over 25 µM (rep main protease; enzyme activity, inhibitor).
Cc1ccc(C(=O)NCc2ccc(C)c(C(=O)N[C@H](C)c3cccc4ccccc34)c2)cc1Cl has an IC50 of 0.28 ± 0.04 µM (rep papain-like protease; enzyme activity, inhibitor).
CCOC(=O)C=CC(CC1CCNC1=O)NC(=O)C(Cc1ccccc1)NC(=O)C=Cc1ccc2c(c1)OCO2 (centres unmarked) gave an IC50 of 10 µM (rep main protease; enzyme activity, inhibitor).
The IC50 of C=CC(=O)NC(CC(=C)C)C(=O)N1CC(C(=O)NC(Cc2ccco2)C(=O)NC)C(c2cccc(C(F)(F)F)c2)C1 (centres unmarked) is reported as 47.8 µM (rep main protease; enzyme activity, inhibitor).
CCC(C(=O)Nn1cccc1)n1cc(F)cc2nc(SCc3ccc(F)cc3)nc1-2 (centres unmarked) has an IC50 of 9.72 ± 0.46 µM (rep papain-like protease; enzyme activity).
CCOC(=O)/C=C/C(Cc1ccccc1)NC(=O)[C@H](Cc1ccc(F)cc1)NC(=O)C(NC(=O)OCc1ccccc1)C(C)C (some centres unmarked) has an IC50 of 11 µM (rep main protease; enzyme activity, inhibitor).
The IC50 of O=c1[nH]c2cc(Cl)cc(Cl)c2c(O)c1Sc1nnnn1-c1ccc(O)cc1 is reported as < 10 µM and 10.6 µM (rep main protease; enzyme activity, inhibitor).
For CCCC(C(=O)Nc1ccccc1C)n1c(SCc2ccc(F)cc2)nc2cccnc21 (centres unmarked), the IC50 was over 20 µM (rep papain-like protease; enzyme activity).
The Ki of CC(C)C[C@H](NC(=O)[C@H](CO[C@@H]1O[C@H](CO)[C@@H](O)[C@H](O)[C@H]1O)NC(=O)[C@H](CCCCN)NC(=O)[C@H](CC(C)C)NC(=O)C(C)(C)NC(=O)[C@H](CCCCN)NC(=O)[C@H](CCC(=O)O)NC(=O)[C@H](C)NC(=O)[C@H](CC(C)C)NC(=O)[C@H](CC(N)=O)NC(=O)[C@@H]1CCCN1C(=O)[C@H](CC(C)C)NC(=O)[C@H](Cc1ccccc1)NC(=O)CNC(=O)[C@H](NC(=O)[C@@H](N)Cc1ccc(O)cc1)[C@H](C)O)C(N)=O is reported as 0.0026 ± 0.00029 µM (OPRM1; radioligand displacement; CHO membranes; 60 min, pH 7.5, 25 °C, added: 0.25 nM [3H]DAMGO).
For CCCCCCCCCCCCCCCC(=O)N[C@@H](CCC(=O)NCCOCCOCCC(=O)NCCOCCOCCC(=O)NCCCC[C@H](NC(=O)[C@H](CC(=O)O)NC(=O)[C@H](CC(C)C)NC(=O)[C@H](Cc1ccc(O)cc1)NC(=O)[C@H](CCCCN)NC(=O)[C@H](CO)NC(=O)[C@H](Cc1ccc(O)cc1)NC(=O)[C@H](CC(=O)O)NC(=O)[C@H](CO)NC(=O)[C@@H](NC(=O)[C@H](Cc1ccccc1)NC(=O)[C@@H](NC(=O)CNC(=O)[C@H](CCC(N)=O)NC(=O)[C@@H](CO)NC(=O)[C@@H](N)Cc1c[nH]cn1)[C@@H](C)O)[C@@H](C)O)C(=O)N[C@@H](CCCNC(=N)N)C(=O)N[C@@H](CCCNC(=N)N)C(=O)N[C@@H](C)C(=O)N[C@@H](CCC(N)=O)C(=O)N[C@@H](CC(=O)O)C(=O)N[C@@H](Cc1ccccc1)C(=O)N[C@H](C(=O)N[C@@H](CCC(N)=O)C(=O)N[C@@H](Cc1c[nH]c2ccccc12)C(=O)N[C@@H](CC(C)C)C(=O)N[C@@H](CC(C)C)C(=O)N[C@@H](CC(N)=O)C(=O)N[C@H](C(=O)NCC(=O)NCC(=O)N1CCC[C@H]1C(=O)N[C@@H](CO)C(=O)N[C@@H](CO)C(=O)NCC(=O)N[C@@H](C)C(=O)N1CCC[C@H]1C(=O)N1CCC[C@H]1C(=O)N1CCC[C@H]1C(=O)N[C@@H](CO)C(N)=O)[C@@H](C)O)C(C)C)C(=O)O, the creatinine was 22.4 ± 1.5 µmol/L (Sprague-Dawley rat, male; subcutaneous, 500 µg/kg once daily, 14 days).
With CCOC(=O)/C=C/C(C[C@@H]1CCNC1=O)NC(=O)[C@@H](CC(=O)C(NC(=O)c1cc(C)on1)C(C)C)Cc1ccccc1 (some centres unmarked) the IC50 was over 100 µM (rep main protease; enzyme activity, inhibitor).
The IC50 of CCC(C(=O)Nc1cccc(F)c1)n1c(SCc2ccc(F)cc2)nc2ncccc21 (centres unmarked) is reported as over 20 µM (rep papain-like protease; enzyme activity).
CCOC(=O)/C=C/C(C[C@@H]1CCNC1=O)NC(=O)[C@H](Cc1ccc(F)cc1)NC(=O)C(NC(=O)c1cc(C)on1)C(C)C (some centres unmarked) has an IC50 of over 100 µM (rep main protease; enzyme activity, inhibitor).
CN(C)c1ccc(/C=C/C(=O)N[C@@H](Cc2ccccc2)C(=O)N[C@H](C=O)C[C@@H]2CCNC2=O)cc1 gave an IC50 of 0.5 µM (rep main protease; enzyme activity, inhibitor).
CCOC(=O)/C=C/C(C[C@@H]1CCNC1=O)NC(=O)[C@H](Cc1ccc(F)cc1)NC(=O)C(NC(=O)OCc1ccccc1)C(C)C (some centres unmarked) gave an IC50 of over 100 µM (rep main protease; enzyme activity, inhibitor).
The IC50 of CCC(C(=O)Nc1ccccc1F)n1cccc2nc(SCc3ccc(F)cc3)nc1-2 (centres unmarked) is reported as 7.57 ± 1.18 µM (rep papain-like protease; enzyme activity).
CCOC(=O)/C=C/C(Cc1ccccc1)NC(=O)[C@@H](CC(=O)C(NC(=O)c1cc(C)on1)C(C)C)Cc1ccccc1 (some centres unmarked) gave an IC50 of 13 µM (rep main protease; enzyme activity, inhibitor).
For CCC(C(=O)Nn1cccc1)n1c(SCc2ccc(F)cc2)nc2ncccc21 (centres unmarked), the IC50 was 9.52 ± 0.06 µM (rep papain-like protease; enzyme activity).
With CCOC(=O)C=CC(Cc1ccccc1)NC(=O)C(Cc1ccccc1)NC(=O)C(NC(=O)C=Cc1ccc2c(c1)OCO2)C(C)C (centres unmarked) the IC50 was over 10 µM (rep main protease; enzyme activity, inhibitor).
The IC50 of O=C1C=CC(=O)c2cn(Cc3ccccc3)cc21 is reported as under 10 µM (rep main protease; enzyme activity, inhibitor).

Some of these lines once more:
CSCC[C@@H](C=O)NC(=O)[C@H](CC(C)C)NC(=O)[C@H](CC(C)C)NC(C)=O gave an IC50 of 2.04 µM (rep main protease; enzyme activity, inhibitor).
C=CC(=O)N1CCN(c2cc(-c3ccc(C4CCC4)cc3)ncc2C(=O)N[C@H](Cc2ccccc2)C(=O)NC)C(C)C1 (some centres unmarked) has an IC50 of over 100 µM (rep main protease; enzyme activity, inhibitor).
CCC(C(=O)Nc1ccccc1F)n1c(SCc2ccc(F)cc2)nc2ncccc21 (centres unmarked) has an IC50 of over 20 µM (rep papain-like protease; enzyme activity).
